# Published values pooled from the literature.
# Compare with care: the assays were run in different laboratories. Several values in a cell are separate wells, animals, samples, runs or records.
# Cell line: PC-3
Compound,assay,setting,scale,quantity,result
CCCC(CCC)C(=O)OCc1cn(-c2cc3ccccc3oc2=O)nn1,NCI60 single-dose screen,10 µM,,growth percentage,91.3%
O=C1CCP(=O)(c2ccccc2)CC1,MTT,72 h,reference: IC50 HaCaT over IC50 PC-3,selectivity index,1
C=C(NC(=O)c1csc(-c2ccc(NC(=O)CCCCCBr)cc2)n1)C(=O)NC(=C)C(=O)OC,cell growth or viability,,,EC50,8 µM
CN(C)CCN1CCN(c2ccc3nc(-c4ccc5nc(-c6ccc(C(F)(F)F)cc6)[nH]c5c4)[nH]c3c2)CC1,SRB,"10 µM, 48 h",,growth percent,68.4%
[BH3-][P+]1(c2ccccc2)CCCCC1,annexin V/PI flow cytometry,"IC50, 72 h",,necrotic cells,0.15%
COC(=O)[C@H](C)NC(=O)[C@H](C)NC(=O)c1csc(-c2cccnc2)n1,cell growth or viability,,,EC50,> 30 µM
Nc1cc2cccnc2c2ncccc12.[Cl-].[Cl-].[Ru+2].c1cnc2c(c1)ccc1cccnc12.c1cnc2c(c1)ccc1cccnc12,MTT,,reference: IC50 dark over light,phototoxicity index,9 and > 9
C1=[N+]2CCCC[N+]3=Cc4ccc5[n]4[Au-]23[n]2c1ccc2-c1nc2ccccc2nc1-5.F[P-](F)(F)(F)(F)F,NCI60 five-dose screen,,,TGI,4 -log M
COc1cc(/C=C/C(=O)/C=C(O)/C=C/c2ccc(OCC(=O)N3CCOCCOCCOCC3)c(OC)c2)ccc1OCC(=O)N1CCOCCOCCOCC1,"cell growth or viability, SRB",25 µM,,inhibition,31.6%
CCc1cc(N2C(=S)N(c3ccc(C#N)c(C(F)(F)F)c3)C(=O)C2(C)C)ccc1OCCN1CCN(CC(=O)Nc2cccc(NC3CCC(=O)NC3=O)c2)[C@H](C)C1 (stereo partly shown),cell proliferation,"120 h, 10% FBS",,GI50,> 10 µM
CCCCCCC(=O)[O][Pt]([NH2])([NH2])([Cl])([Cl])[O]C(=O)CCC(C)C1CCC2C3CCC4CC(O)CCC4(C)C3CCC12C (stereo not shown),Western blot,"1 to 2 µM, 48 h, with: cisplatin 2 µM",,Bcl-2 protein level,decreased
CCc1c(C)c2ccc(OC(C)C)c(C)c2oc1=O,"cell growth or viability, MTT",31.25 µg/mL,,viability,63.5%
CCN(C(=O)c1cc(F)ccc1Oc1nncnc1N1CCC2(C1)CN([C@H](CCCN(C)CCOC)C(C)C)C2)C(C)C,cell growth or viability,7 days,,GI50,> 10 µM

# Excerpt of the above:
Compound,assay,setting,scale,quantity,result
CN(C)CCN1CCN(c2ccc3nc(-c4ccc5nc(-c6ccc(C(F)(F)F)cc6)[nH]c5c4)[nH]c3c2)CC1,SRB,"10 µM, 48 h",,growth percent,68.4%
